Measurements from different studies.
Each line is one published result; not all experiments were run side by side. Values joined by “and” are separate records of one study, mostly repeats; a detail may differ.
MAPK14: Mitogen-activated protein kinase 14 (MAPK14, Homo sapiens, UniProt Q16539)

SMILES = CN1CCN(Cc2ccc(NC(=O)c3cccc(C#Cc4cnc(N)c5ncccc45)c3)cc2C(F)(F)F)CC1; target = MAPK14; test = cell-free assay, competition with immobilised ligand; setting = 0.5 µM; quantity = remaining binding; result = 0.7%
SMILES = COC(=O)[C@@]1(Cc2ccccc2)C=C(C(=O)OC(C)(C)C)C(=O)CC1; target = MAPK14 (Homo sapiens, UniProt Q16539, C162A); test = peptide binding, fluorescence polarization; setting = 250 µM; quantity = fraction bound; result = 0.248
SMILES = Cc1cccc(-c2ccc3nc(NC(=O)C4CCCCC4)nn3c2)c1; target = MAPK14; test = enzyme activity, Dundee kinase panel; setting = 10 µM; quantity = remaining activity; result = 86%
SMILES = NC(=O)[C@@H](O)C[C@H]1CCc2sc3ncnc(O[C@H]4CC[C@H](N5CCOCC5)CC4)c3c21; target = MAPK14; test = enzyme activity, inhibitor; setting = 10 µM; quantity = inhibition; result = 0%
SMILES = COc1c(OCCCN2CCOCC2)ccc2c1N=C(NC(=O)c1cnc(N)nc1)N1CCN=C21; target = MAPK14; test = kinase activity, inhibitor; setting = 1 µM; how to read = relative to: untreated control; quantity = remaining activity; result = 130%
SMILES = Cc1cccc(-c2ccc3nc(NC(=O)C4CCCO4)nn3c2)c1 (stereo not shown); target = MAPK14; test = enzyme activity, Dundee kinase panel; setting = 10 µM; quantity = remaining activity; result = 104%
SMILES = CC(=O)N1c2ccc(-c3ccc(CNC(=O)c4cn5cc(-c6cnc(N)nc6)nc(N6CCOCC6)c5n4)cc3)cc2CC[C@@H]1C; target = MAPK14; test = KINOMEscan; setting = 10 µM; quantity = remaining binding; result = 100%
SMILES = C=C1CCCCCCCCCC(CO)C1=O (stereo not shown); target = MAPK14; test = cell-free assay, competition with immobilised ligand; setting = 10 µM; quantity = remaining binding; result = 100%
SMILES = C#CCOC(=O)[C@]1(C)C=C(C(=O)OC(C)(C)C)C(=O)CC1; target = MAPK14; test = kinase activity, Kinase-Glo luminescence; setting = concentration not given; quantity = normalized luminescence; result = -0.137 and -0.0083 and -0.029
SMILES = O=C=[N][Ru-4]123([n]4c5ccc(O)cc5c5c6c(c7cc(F)c[n+]1c7c54)C(=O)NC6=O)[S+]1CC[S+]2CC[S+]3CC1 (stereo not shown); target = MAPK14; test = enzyme activity; setting = 100 nM, human enzyme, together with: 10 µM ATP; how to read = relative to: untreated; quantity = remaining activity; result = 111%
SMILES = COc1ccc(O)cc1-c1c[nH]c2ncc(-c3cncc(C(=O)N(C)C)c3)cc12; target = MAPK14; test = binding, competition with immobilised ligand; setting = 0.2 µM; quantity = inhibition; result = -1.93%
SMILES = CCn1cc(C(=O)O)c(=O)c2c(N)c(F)c(NC3CCCCC3)cc21; target = MAPK14; test = kinase activity; setting = 0.1 µM, together with: ATP at Km; quantity = inhibition; result = 31.3%
SMILES = O=C(Cc1ccc(OCc2ccccc2)cc1)NC1(C(=O)O)CCN(C(=O)c2ccc(-c3cccc(Cl)c3)cc2)CC1; target = MAPK14; test = enzyme activity, inhibitor; setting = 10 µM; quantity = activity vs control; result = 128%
SMILES = C=CC(=O)Nc1cccc(-c2cnc3[nH]cc(C(=O)NC(C)(C)C)c3n2)c1; target = MAPK14; test = kinase activity; setting = 0.1 µM; quantity = inhibition; result = 1% and 10%
SMILES = CNS(=O)(=O)Nc1nccc(Cc2c(C)c3ccc(Oc4ncccc4F)cc3oc2=O)c1F; target = MAPK14; test = binding, competition with immobilised ligand; setting = 10 µM; quantity = remaining binding; result = 69%
SMILES = Cc1cccc(O[C@H]2CCC[C@@H](C(C)CNCc3ccncc3)C2)c1 (relative stereo); target = MAPK14; test = kinase activity, kinome panel screening; setting = 10 µM; quantity = inhibition; result = -5%
SMILES = COC(=O)[C@@]1(C)C=C(C(=O)Nc2cccc(C(=O)Nc3ccc(Nc4nccc(-c5cccnc5)n4)c(C)c3)c2)C(=O)CC1; target = MAPK14; test = enzyme activity, inhibitor; setting = 133.3 µM, unit not given; how to read = relative to: vehicle; quantity = remaining activity; result = 0.212 and 0.214 and 0.228
SMILES = O=C(O)CCC(=O)c1cccc(NS(=O)(=O)c2c[nH]c3ncccc23)c1; target = MAPK14; test = kinase activity, radiometric; setting = 10 µM; quantity = remaining activity; result = 88%
SMILES = CNC(=O)C[C@H](Cc1ccc(C#N)cc1)NC(=O)c1cc(-c2ccc(CN[C@H](C)c3ccc(C)cc3)o2)ccc1Cl; target = MAPK14; test = enzyme activity, inhibitor; setting = 1 µM; quantity = activity vs control; result = 104%
SMILES = Nc1nc(Nc2ccccc2)sc1C(=O)c1ccccc1; target = MAPK14; test = enzyme activity, inhibitor; setting = 10 µM; quantity = remaining activity; result = 14%
SMILES = CS(=O)(=O)Nc1cccc(-c2csc3cnc(Nc4ccc(N5CCN(CCCCCOc6cccc7c6C(=O)N(C6CCC(=O)NC6=O)C7=O)CC5)cc4)nc23)c1 (stereo not shown); target = MAPK14; test = probe labelling, inhibitor, KiNativ chemoproteomics; test system = MOLT-4; setting = 1 µM; quantity = inhibition; result = 9.62%
SMILES = CN(C)c1ccc(-n2cc(COC(=O)[C@]3(C)C=C(C(=O)OC(C)(C)C)C(=O)CC3)nn2)cc1; target = Mitogen-activated protein kinase 14, with MKK6 (MAPK14, Homo sapiens, UniProt Q16539); test = protein-protein interaction, NanoBiT, measured: MKK6-p38α binding; test system = HEK293T; setting = 10 µM; how to read = relative to: DMSO control; quantity = luminescence relative to control; result = 0.646
SMILES = COc1cc(Nc2nc(C)cc(-c3cnn4nc(OC)ccc34)n2)cc(C(F)(F)F)c1; target = MAPK14; test = KINOMEscan; setting = 1 µM, p38-alpha; how to read = relative to: DMSO; quantity = remaining binding; result = 87%
SMILES = COc1ccc(NC(=O)Nc2ccc3c(c2)C(=O)N(C(C)CO)CC(C)C(CN(C)Cc2ccc4c(c2)OCO4)O3)cc1 (stereo not shown); target = MAPK14; test = binding, competition with immobilised ligand; setting = 10 µM; quantity = remaining binding; result = 93%
SMILES = CCN1CCN(Cc2ccc(NC(=O)c3ccc(C)c(NC(=O)c4cncc(-c5cccs5)c4)c3)cc2C(F)(F)F)CC1; target = MAPK14; test = binding, competition with immobilised ligand; setting = 1 µM; quantity = remaining binding; result = 0.7%
SMILES = COc1ccc(C(=O)/C=C/c2ccccc2-c2c[nH]c3ccc(C#N)cc23)c(O)c1; target = MAPK14; test = enzyme activity, inhibitor; setting = 20 µM; quantity = inhibition; result = 4%
SMILES = CN1CC[C@@H](COc2cnc(C#N)cc2-c2ccn3nc(NC(=O)C4CC4)cc3c2)C1; target = MAPK14; test = enzyme activity, inhibitor; setting = 1 µM; quantity = inhibition; result = 0%
SMILES = COc1c(Cl)cccc1Nc1c(-c2ccncc2C#C[C@@]2(C)CCCN2C(=O)/C=C/CN(C)C)[nH]c2c1C(=O)NCC2; target = MAPK14; test = binding, competition with immobilised ligand; setting = 3 µM; quantity = remaining binding; result = 0.7%
